Experimental data from different studies.
Compare with care: the assays were run in different laboratories. Values joined by “and” are separate records of one study, mostly repeats; a detail may differ. ± marks the error that the study gave.
Chain of UniProt Q5XJY4 (whole entry, looked up): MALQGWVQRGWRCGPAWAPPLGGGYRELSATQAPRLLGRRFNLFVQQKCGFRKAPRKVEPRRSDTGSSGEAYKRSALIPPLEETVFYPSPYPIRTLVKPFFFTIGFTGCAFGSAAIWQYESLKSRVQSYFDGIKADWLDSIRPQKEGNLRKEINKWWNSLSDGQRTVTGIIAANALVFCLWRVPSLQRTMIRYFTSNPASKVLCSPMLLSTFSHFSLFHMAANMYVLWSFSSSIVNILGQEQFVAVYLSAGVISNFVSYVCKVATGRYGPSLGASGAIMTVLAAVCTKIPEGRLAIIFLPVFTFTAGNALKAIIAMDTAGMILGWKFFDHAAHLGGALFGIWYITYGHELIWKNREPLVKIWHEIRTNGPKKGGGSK
Chain of UniProt Q9Y2J8 (whole entry, looked up): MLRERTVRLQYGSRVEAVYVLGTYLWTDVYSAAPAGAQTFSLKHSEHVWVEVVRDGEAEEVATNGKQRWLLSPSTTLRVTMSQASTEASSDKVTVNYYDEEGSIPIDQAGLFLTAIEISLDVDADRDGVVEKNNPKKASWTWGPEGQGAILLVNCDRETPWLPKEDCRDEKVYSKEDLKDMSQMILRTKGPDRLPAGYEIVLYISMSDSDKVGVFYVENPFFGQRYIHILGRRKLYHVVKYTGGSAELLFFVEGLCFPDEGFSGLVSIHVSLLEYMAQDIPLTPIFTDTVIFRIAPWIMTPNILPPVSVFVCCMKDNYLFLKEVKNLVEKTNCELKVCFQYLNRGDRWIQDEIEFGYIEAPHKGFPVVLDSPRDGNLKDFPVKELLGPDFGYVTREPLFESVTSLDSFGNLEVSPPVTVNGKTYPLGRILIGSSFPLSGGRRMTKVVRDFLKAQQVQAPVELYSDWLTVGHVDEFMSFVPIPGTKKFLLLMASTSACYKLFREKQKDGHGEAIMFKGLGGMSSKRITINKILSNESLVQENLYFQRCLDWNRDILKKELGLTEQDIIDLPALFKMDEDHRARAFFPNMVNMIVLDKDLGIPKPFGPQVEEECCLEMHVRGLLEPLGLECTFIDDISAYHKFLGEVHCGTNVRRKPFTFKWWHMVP
Chain of UniProt P22612 (whole entry, looked up): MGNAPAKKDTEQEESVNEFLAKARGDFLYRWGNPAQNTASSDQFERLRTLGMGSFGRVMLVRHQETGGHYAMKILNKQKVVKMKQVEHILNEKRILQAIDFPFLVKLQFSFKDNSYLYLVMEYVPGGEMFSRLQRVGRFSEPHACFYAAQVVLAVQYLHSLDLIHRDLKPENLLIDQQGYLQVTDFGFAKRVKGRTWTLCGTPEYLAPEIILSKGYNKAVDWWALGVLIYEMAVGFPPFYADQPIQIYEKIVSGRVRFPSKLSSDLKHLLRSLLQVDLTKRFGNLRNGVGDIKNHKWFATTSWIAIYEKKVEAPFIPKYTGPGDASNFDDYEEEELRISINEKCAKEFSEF
Chain of UniProt Q9UH17 (whole entry, looked up): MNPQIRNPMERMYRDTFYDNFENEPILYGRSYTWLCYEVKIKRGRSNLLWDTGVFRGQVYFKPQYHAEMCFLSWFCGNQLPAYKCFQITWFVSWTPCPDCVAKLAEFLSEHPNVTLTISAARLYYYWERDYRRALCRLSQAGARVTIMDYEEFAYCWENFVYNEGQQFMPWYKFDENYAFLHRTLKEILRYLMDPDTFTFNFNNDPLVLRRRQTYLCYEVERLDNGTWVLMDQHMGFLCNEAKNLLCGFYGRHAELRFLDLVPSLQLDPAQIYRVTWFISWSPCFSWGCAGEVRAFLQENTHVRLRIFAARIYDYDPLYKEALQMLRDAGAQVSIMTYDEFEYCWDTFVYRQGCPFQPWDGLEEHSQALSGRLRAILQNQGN
Chain of UniProt P0A988 (whole entry, unmodified, looked up): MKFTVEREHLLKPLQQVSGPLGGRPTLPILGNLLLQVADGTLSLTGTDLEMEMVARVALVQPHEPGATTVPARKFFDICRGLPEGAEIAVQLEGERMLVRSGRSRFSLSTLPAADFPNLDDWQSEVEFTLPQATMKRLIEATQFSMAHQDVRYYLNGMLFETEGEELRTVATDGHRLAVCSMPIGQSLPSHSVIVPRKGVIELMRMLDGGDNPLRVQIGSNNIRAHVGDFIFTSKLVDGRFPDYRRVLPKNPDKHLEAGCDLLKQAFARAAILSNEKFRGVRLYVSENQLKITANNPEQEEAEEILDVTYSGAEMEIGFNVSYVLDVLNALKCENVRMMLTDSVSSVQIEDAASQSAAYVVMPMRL
Chain of UniProt Q6DWJ6 (whole entry, looked up): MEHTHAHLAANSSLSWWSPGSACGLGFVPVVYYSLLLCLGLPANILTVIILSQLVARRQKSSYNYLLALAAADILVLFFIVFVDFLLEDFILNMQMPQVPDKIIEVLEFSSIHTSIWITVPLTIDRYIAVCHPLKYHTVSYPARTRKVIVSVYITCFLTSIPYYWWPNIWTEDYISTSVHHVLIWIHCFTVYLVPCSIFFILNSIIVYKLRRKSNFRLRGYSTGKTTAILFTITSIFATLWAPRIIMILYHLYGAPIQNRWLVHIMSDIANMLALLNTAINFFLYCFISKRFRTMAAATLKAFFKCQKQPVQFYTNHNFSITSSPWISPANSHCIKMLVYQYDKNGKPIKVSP
Chain of UniProt Q61206 (whole entry, looked up): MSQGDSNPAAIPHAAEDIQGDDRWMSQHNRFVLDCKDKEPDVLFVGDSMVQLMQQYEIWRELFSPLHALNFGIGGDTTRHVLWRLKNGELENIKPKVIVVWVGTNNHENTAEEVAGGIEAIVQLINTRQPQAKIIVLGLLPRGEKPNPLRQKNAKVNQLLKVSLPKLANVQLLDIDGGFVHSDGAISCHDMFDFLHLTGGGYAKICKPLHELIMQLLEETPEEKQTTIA
Chain of UniProt P34947 (whole entry, looked up): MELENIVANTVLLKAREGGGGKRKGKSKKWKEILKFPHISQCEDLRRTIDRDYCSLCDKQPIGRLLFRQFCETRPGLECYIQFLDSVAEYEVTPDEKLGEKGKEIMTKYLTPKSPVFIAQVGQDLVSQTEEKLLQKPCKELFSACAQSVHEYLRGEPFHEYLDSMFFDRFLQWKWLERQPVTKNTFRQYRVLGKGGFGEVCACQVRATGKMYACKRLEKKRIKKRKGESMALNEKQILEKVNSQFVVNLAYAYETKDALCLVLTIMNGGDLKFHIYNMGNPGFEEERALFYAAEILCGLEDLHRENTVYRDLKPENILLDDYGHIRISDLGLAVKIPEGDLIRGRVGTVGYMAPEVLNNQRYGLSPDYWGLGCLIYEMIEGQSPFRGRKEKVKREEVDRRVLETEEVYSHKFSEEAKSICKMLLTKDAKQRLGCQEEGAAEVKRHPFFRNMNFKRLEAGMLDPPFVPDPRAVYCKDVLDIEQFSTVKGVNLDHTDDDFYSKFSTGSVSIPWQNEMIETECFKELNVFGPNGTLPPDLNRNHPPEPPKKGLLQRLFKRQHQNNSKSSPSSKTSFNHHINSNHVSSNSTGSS
Chain of UniProt Q13153 (whole entry, looked up): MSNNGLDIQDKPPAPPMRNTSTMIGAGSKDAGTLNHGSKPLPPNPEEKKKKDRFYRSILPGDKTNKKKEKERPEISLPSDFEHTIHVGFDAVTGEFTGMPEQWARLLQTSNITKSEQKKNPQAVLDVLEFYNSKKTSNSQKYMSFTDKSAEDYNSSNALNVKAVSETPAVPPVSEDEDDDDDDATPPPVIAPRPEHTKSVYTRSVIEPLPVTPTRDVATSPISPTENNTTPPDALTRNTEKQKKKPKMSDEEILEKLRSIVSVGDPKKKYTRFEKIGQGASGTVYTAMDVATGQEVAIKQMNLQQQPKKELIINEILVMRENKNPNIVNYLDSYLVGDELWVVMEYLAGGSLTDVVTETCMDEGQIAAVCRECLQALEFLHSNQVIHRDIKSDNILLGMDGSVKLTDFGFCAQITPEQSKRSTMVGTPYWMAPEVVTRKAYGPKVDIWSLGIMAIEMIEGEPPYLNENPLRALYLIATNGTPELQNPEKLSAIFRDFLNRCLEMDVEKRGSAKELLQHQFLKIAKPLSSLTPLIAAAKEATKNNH
Chain of UniProt O60658 (whole entry, looked up): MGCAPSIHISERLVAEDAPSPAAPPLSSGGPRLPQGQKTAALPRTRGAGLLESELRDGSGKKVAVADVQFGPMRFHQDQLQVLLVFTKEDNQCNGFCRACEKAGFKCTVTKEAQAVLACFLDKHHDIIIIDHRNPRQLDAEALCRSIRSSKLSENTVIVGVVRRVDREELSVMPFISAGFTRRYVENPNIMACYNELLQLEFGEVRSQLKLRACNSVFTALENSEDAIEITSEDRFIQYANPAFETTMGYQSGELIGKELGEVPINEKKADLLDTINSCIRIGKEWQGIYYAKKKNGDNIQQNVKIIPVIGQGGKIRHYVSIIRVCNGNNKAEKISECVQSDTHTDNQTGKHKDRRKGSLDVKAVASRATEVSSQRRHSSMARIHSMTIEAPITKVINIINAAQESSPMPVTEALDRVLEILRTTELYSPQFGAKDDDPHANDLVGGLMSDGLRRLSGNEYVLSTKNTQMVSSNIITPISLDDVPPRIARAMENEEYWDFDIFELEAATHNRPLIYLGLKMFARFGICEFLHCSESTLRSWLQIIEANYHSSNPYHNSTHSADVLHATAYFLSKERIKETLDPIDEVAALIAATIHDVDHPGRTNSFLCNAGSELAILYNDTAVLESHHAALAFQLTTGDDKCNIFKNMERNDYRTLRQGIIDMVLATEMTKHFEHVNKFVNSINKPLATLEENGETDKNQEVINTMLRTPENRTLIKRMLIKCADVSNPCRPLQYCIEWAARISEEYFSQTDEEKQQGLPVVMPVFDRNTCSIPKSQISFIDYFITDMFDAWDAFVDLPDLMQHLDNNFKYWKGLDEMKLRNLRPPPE

SMILES = COc1ccccc1-c1n[nH]c2nc(N[C@H]3CC[C@H](NS(=O)(=O)CC(C)C)CC3)ncc12; assay = bead binding, competition bead pull-down, measured: LMJF.21.0810; system = Leishmania donovani extract; conditions = 10 µM; scale = reference: vehicle; measurement = relative abundance; value = 1.04
SMILES = CCOC(=O)[C@@H]1Cc2c(cc([N+](=O)[O-])cc2[N+](=O)[O-])[C@H](O)[C@]12C(=O)Nc1ccc(Br)cc12; target or system = PAK1 (Homo sapiens, UniProt Q13153); assay = binding, competition with immobilised ligand; conditions = 0.1 µM; measurement = remaining binding; value = 81%
SMILES = C=CC(=O)Nc1cc(-c2ccc(C(=O)N3CCCC(O)(CC)C3)cc2)ccc1F (stereo not drawn); target or system = DNA dC->dU-editing enzyme APOBEC-3B, C-terminal domain (Homo sapiens, UniProt Q9UH17); assay = covalent adduct, intact protein MS; conditions = 3 h, 1-fold, 25 µM; measurement = adducted protein; value = 0% and 5%
SMILES = O=C(CN1CN(c2ccccc2)C2(CCN(C(=O)c3cnc4[nH]ncc4c3)CC2)C1=O)NCC(F)(F)F; target or system = EGFR (Homo sapiens, UniProt P00533, G719C); assay = inhibitor; conditions = concentration not given; measurement = inhibition; value = < 50%
SMILES = C#CCCCCOc1ccc2c(c1)CCCN2C(=O)CCl; target or system = PDE8A (Homo sapiens, UniProt O60658); assay = mass spectrometry profiling; system = H460 cell lysate; conditions = 100 µM over 10 µM, UniProt O60658; scale = reference: high over low concentration; measurement = reactivity ratio; value = 1.52
SMILES = CC(C)C[C@H](NC(=O)[C@H]1O[C@@H]1C(=O)O)C(=O)NCCCCN=C(N)N; target or system = Pro-cathepsin H (Homo sapiens, UniProt P09668); measurement = Hill slope; value = -1.53
SMILES = O=C(N1CCCCC1)n1ccnn1; target or system = Platelet-activating factor acetylhydrolase IB subunit alpha2 (Mus musculus, UniProt Q61206); assay = enzyme activity, inhibitor, competitive ABPP-SILAC, measured: Pafah1b2; system = mouse T-cells; conditions = concentration not given, 4 h, treated in situ; scale = reference: DMSO; measurement = activity ratio; value = 1.61
SMILES = COc1ccccc1-c1n[nH]c2nc(NC3CCN(C(=O)Cc4ccc(F)cc4F)CC3)ncc12; assay = bead binding, competition bead pull-down, measured: LMJF.21.1860; system = Leishmania donovani extract; conditions = 10 µM; scale = reference: vehicle; measurement = relative abundance; value = 1.11
SMILES = O=C1NC(=O)c2c1c1cc(F)c[n+]3c1c1c2c2cc(O)ccc2[n]1[Ru-4]312([N]=C=S)[S+]3CC[S+]1CC[S+]2CC3 (stereo not drawn); target or system = GRK5 (Homo sapiens, UniProt P34947); assay = enzyme activity; conditions = 100 nM, human enzyme, together with: 10 µM ATP; scale = reference: untreated; measurement = remaining activity; value = 55%
SMILES = CC(C)[C@H]1NC(=O)C[C@H]2/C=C/CCSSC[C@@H](NC1=O)C(=O)N[C@H](Cc1cccc3ccccc13)C(=O)NCC(=O)O2; target or system = MAPK1 (Homo sapiens, UniProt P28482); assay = enzyme activity, inhibitor; conditions = 10 µM; measurement = inhibition; value = -4.2%
SMILES = CC[C@H](C)[C@H](NC(=O)[C@H](CCCNC(=N)N)NC(=O)[C@H](CCCNC(=N)N)NC(=O)[C@H](CC(C)C)NC(=O)[C@H](Cc1ccccc1)NC(=O)CNC(=O)CNC(=O)[C@@H](N)Cc1ccc(O)cc1)C(=O)N[C@@H](CCCNC(=N)N)C(=O)N1CCC[C@H]1C(=O)N[C@@H](CCCCN)C(=O)N[C@@H](CC(C)C)C(=O)N[C@@H](CCCCN)C(=O)O; target or system = GPR139 (Homo sapiens, UniProt Q6DWJ6); assay = Gαolf activation, agonist, BRET; system = HEK293T/17; conditions = 40 µM; measurement = Emax; value = 10.8% and 9.01%
SMILES = Cc1n[nH]c(C)c1CCCOc1cc(OCCCCCCNCCOCCOCCn2cc(CNc3ccc(C(=O)O)cc3)nn2)cc(C(=O)O)c1; target or system = Transthyretin (TTR, Homo sapiens, UniProt P02766); assay = fluorescent probe exclusion; system = human serum; conditions = 10 µM, 15:00:00; measurement = probe binding remaining; value = 6.94%
SMILES = O=C(CCCC[C@@H]1SC[C@@H]2NC(=O)N[C@@H]21)NCCCCCCCCN1[C@H]2[C@H](O)[C@@H](O)[C@H](O[C@@H]3OC[C@@H](O)[C@H](O)[C@H]3O)C[C@H]21 (stereo partly drawn); target or system = xlnC (Aspergillus niger, UniProt A2QFV7); assay = activity-based probe pulldown; system = Aspergillus niger, secretome; scale = reference: total secretome; measurement = enrichment; value = 3.6 fold and 2.6 fold and 3 fold
SMILES = Cc1cc(C(=O)Nc2nc3cccc(C)c3n2[C@H]2CCCCN(C(=O)/C=C/CN(C)C)C2)ccn1; target or system = Trypanosoma brucei; assay = propidium iodide flow cytometry; system = bloodstream form; conditions = concentration not given, 3 h; measurement = multinucleated cells; value = 6.75%
SMILES = CC(=O)N[C@@H](CCC(N)=O)C(=O)N[C@@H](CC1CCCCC1)C(=O)N[C@@H](CNC(=O)CCl)C(=O)N[C@@H](CC(C)C)C(=O)N[C@@H](Cc1ccccc1)C(=O)O; target or system = Beta sliding clamp (Escherichia coli, UniProt P0A988); assay = binding, isothermal titration calorimetry; conditions = 25 °C; measurement = ΔH; value = -11.7 kcal/mol
SMILES = N[C@H](C(=O)N1CCCC1)C1CCN(c2nccc3c(-c4ncc(Cl)cc4Cl)cccc23)CC1; target or system = PADI2 (Homo sapiens, UniProt Q9Y2J8); assay = enzyme activity; conditions = 0.2458 µM, high-affinity site, together with: Ca2+ 1.5 mM; measurement = kcat; value = 1.67 s⁻¹ and 1.52 s⁻¹
SMILES = CCCCC/C=C\C/C=C\C/C=C\C/C=C\CCCC(=O)NCCc1ccc(O)c(O)c1; target or system = Trpv1 (Mus musculus, UniProt Q704Y3, D577E); assay = ion current, agonist, whole-cell patch clamp; conditions = D577E; scale = reference: 3 mM 2-APB; measurement = maximal open probability; value = 0.41 ± 0.09
SMILES = CCc1nnc(-c2c(OC)cc(-c3cnc4cc(-c5cnn(C)c5)ccn34)cc2OC)o1; target or system = PDE3A (Homo sapiens, UniProt Q14432); conditions = 10 µM; measurement = inhibition of specific binding; value = 0%
SMILES = Cc1nc2cccc(OCC(C)(C)C(=O)NC(C)C)c2c(N)c1C(=O)[O-].[Na+]; target or system = Salmonella typhimurium; assay = Ames preincubation; system = TA1535; conditions = 0.13 mg/plate, together with: without rat liver S9; measurement = revertant colonies; value = 16 ± 6 colonies/plate
SMILES = CN(C)[C@H]1C[C@@]23CC[C@@]4(O2)C(=CC[C@]2(C)[C@@H](c5ccc6ccncc6c5)CC[C@H]24)C=C3[C@@H](O)[C@@H]1O; target or system = TEC (Homo sapiens, UniProt P42680); assay = ATP probe labelling, inhibitor, KiNativ profiling; conditions = 1 µM; measurement = inhibition; value = 4.2%
SMILES = N=C(N)NCCC[C@@H]1NC(=O)[C@H](CCCCNC(=O)CCC(NC(=S)Nc2ccc(CC3CN(CC(=O)O)CCN(CC(=O)O)CCN(CC(=O)O)CCN3CC(=O)O)cc2)C(=O)NCCCC[C@@H]2NC(=O)[C@@H](Cc3ccc(O)cc3)NC(=O)[C@H](CC(=O)O)NC(=O)CNC(=O)[C@H](CCCNC(=N)N)NC2=O)NC(=O)[C@@H](Cc2ccc(O)cc2)NC(=O)[C@H](CC(=O)O)NC(=O)CNC1=O (stereo partly drawn) [scandium-44 labelled]; assay = ex vivo γ-counting; system = female athymic nude mice, U-87 MG xenograft, tumor; conditions = intravenous, 4 h, together with: cRGD 50 mg/kg blocking; measurement = tissue uptake; value = 0.128 ± 0.02 %ID/g
SMILES = O=C1NC2(CC2)COc2ncc(F)cc2[C@H]2COCCN2c2ccn3ncc1c3n2; system = Sprague-Dawley rat, female, serum; conditions = oral, 10 mg/kg/day, end of treatment, 4-week subacute toxicity; measurement = serum sodium; value = 146 ± 1 mmol/L
SMILES = CC(C)CC(O)(CC(C)C)c1cn(C(=O)N2CCCC2)nn1; target or system = Presenilin-associated rhomboid-like protein, mitochondrial (Parl, Mus musculus, UniProt Q5XJY4); assay = probe labelling, inhibitor, competitive ABPP-SILAC, measured: Parl; system = mouse T cells; conditions = concentration not given, 4 h, in situ, single peptide; scale = reference: treated over DMSO, lower = more inhibition; measurement = SILAC ratio; value = 1.26 and 1.3 and 1.33 and 0.78 and 1.45 and 1.25 and 1.35 and 1.27
SMILES = CC(C)(C)C(=O)OCOP(=O)(OCOC(=O)C(C)(C)C)C1CCCN(O)C1=O (stereo not drawn); target or system = PC-3; measurement = log GI50; value = -5.69 log M
SMILES = [CH3][Ti+2][O]C(=O)c1ccc([S][Au][PH](c2ccccc2)(c2ccccc2)c2ccccc2)cc1.c1cc[cH-]c1.c1cc[cH-]c1; target or system = PRKACG (Homo sapiens, UniProt P22612); assay = kinase activity, HotSpot radiometric; conditions = 1 µM, together with: ATP 10 µM; scale = reference: vehicle; measurement = remaining activity; value = 104% and 111%
SMILES = CS(C)(=O)=Nc1ccc(-c2ccc(-c3nc4cc(O[C@@H]5CO[C@H]6[C@@H]5OC[C@H]6O)[nH]c4cc3F)cc2)cc1; target or system = MET (Homo sapiens, UniProt P08581, D1228H); assay = enzyme activity, inhibitor; conditions = 10 µM; measurement = inhibition; value = -32%
SMILES = CC[C@H](C)[C@@H]([C@@H](CC(=O)N1CCC[C@H]1[C@H](OC)[C@@H](C)C(=O)N[C@H](C)[C@@H](O)c1ccccc1)OC)N(C)C(=O)[C@@H](NC(=O)[C@H](C(C)C)N(C)C(=O)OCc1ccc(NC(=O)[C@H](CCCNC(N)=O)NC(=O)[C@@H](NC(=O)CCCCCN2C(=O)CC(SC[C@H](NC(=O)[C@H](CC(=O)O)NC(=O)[C@H](Cc3ccc(O)cc3)NC(=O)[C@H](Cc3c[nH]c4ccccc34)NC(=O)[C@@H](N)CCCNC(=N)N)C(=O)O)C2=O)C(C)C)cc1)C(C)C (stereo partly drawn); system = C57BL/6 mouse, healthy, heart; conditions = intraperitoneal, 2.5 mg/kg, 6 h; measurement = concentration; value = not detected
SMILES = CC[C@H](C)[C@H](NC(=O)[C@H](CCCCN)NC(=O)CNC(=O)[C@H](CC(C)C)NC(=O)[C@H](Cc1ccccc1)NC(=O)[C@H](CCCCN)NC(=O)[C@H](CO)NC(=O)[C@H](Cc1ccccc1)NC(=O)[C@H](Cc1c[nH]c2ccccc12)NC(=O)[C@H](CCC(N)=O)NC(=O)[C@@H](NC(=O)[C@H](Cc1ccccc1)NC(=O)CCCCCNC(=O)CN1CCN(CC(=O)O)CCN(CC(=O)O)CCN(CC(=O)O)CC1)C(C)C)C(=O)N[C@@H](CCC(=O)O)C(=O)N1CCC[C@H]1C(=O)N[C@@H](CC(=O)O)C(=O)N[C@H](C(=O)N[C@@H](CO)C(=O)N[C@@H](CCC(N)=O)C(=O)N[C@H](C(=O)N[C@@H](CCC(N)=O)C(=O)N[C@@H](CC(=O)O)C(=O)N1CCC[C@H]1C(=O)N[C@@H](CC(N)=O)C(=O)N[C@@H](CC(=O)O)C(=O)N[C@@H](CCC(N)=O)C(=O)N[C@@H](Cc1ccc(O)cc1)C(=O)N[C@@H](CCC(=O)O)C(=O)N1CCC[C@H]1C(=O)N[C@@H](Cc1ccccc1)C(=O)O)C(C)C)C(C)C [copper-64 labelled]; system = GZMB-/- mouse bearing CT26 tumour, lung; conditions = dose not given, 2 h, vehicle-treated; measurement = tissue uptake; value = 2.62 ± 0.4 %ID/g
SMILES = CC[C@H](C)[C@H](NC(=O)[C@H](CO)NC(=O)[C@H](Cc1ccc(O)cc1)NC(=O)[C@H](Cc1ccc(O)cc1)NC(=O)[C@H](CC(N)=O)NC(=O)CNC(=O)[C@H](CO)NC(=O)[C@H](Cc1ccc(O)cc1)NC(=O)[C@H](CO)NC(=O)[C@H](CO)NC(=O)[C@H](CC(N)=O)NC(=O)COCCOCCNC(=O)CN1CCN(CC(=O)O)CCN(CC(=O)O)CCN(CC(=O)O)CC1)C(=O)N[C@@H](CC(C)C)C(N)=O [copper-64 labelled]; assay = dynamic PET; system = KPC mouse Ptf1a-CreER tdTomato, metastases; conditions = intravenous, 4.6 MBq/mouse, 1.1 min, 84 d after tamoxifen; measurement = tissue uptake; value = 12.8 %ID/mL
SMILES = C[C@H](NCc1ccc(-c2ccc(C(F)(F)F)cc2)cc1)C(N)=O; target or system = CHRM4 (Homo sapiens, UniProt P08173); assay = radioligand binding; conditions = 1 µM, together with: [3H]N-methylscopolamine 0.80 nM; measurement = inhibition of binding; value = 3%
